Measurements of several laboratories.
A part holds a random share of what one study measured. Positions count from the first letter of the parent shown.

Block 1 — method: DHFR PCA, deep sequencing; medium: yeast; together with: (+)-ABA 0 µM; baseline: wild-type fitted maximum; direction: higher = stronger binding
Target: ABI1, truncated, D143A, DHFR fusion (Arabidopsis thaliana)
Notes: methotrexate growth selection, single substitutions
Parent: PYL1, truncated, DHFR fusion (Arabidopsis thaliana); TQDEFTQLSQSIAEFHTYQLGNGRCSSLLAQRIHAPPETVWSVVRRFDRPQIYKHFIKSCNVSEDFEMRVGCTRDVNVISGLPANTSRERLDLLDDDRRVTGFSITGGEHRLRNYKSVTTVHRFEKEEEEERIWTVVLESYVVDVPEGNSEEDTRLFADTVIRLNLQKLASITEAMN
Substitution	relative binding score
L112Y	-2%
S42A	36.3%
D96Y	6.35%
L93F	5.02%
E151H	17.4%
Y53I	-1.05%
V145H	-17.7%
H34A	39.7%
L93D	-4.89%
L20N	24.8%
F103E	-2.03%
S150C	11.3%
E4R	2.54%
Y18A	-0.218%
E139P	10.4%
I57F	-5.54%
R45T	-5.75%
A84L	20%
S26G	20.4%
M176N	2.29%
Y18T	-1.45%
V136Q	-11.4%
H122A	-0.00787%
S104M	2.68%
E127T	31.2%

Block 2 — method: RNA Bind-n-Seq; form: RNA; medium: in vitro; concentration: 15 pmol; notes: 4-mer, random 30-nt RNA, single round; together with: DMSO vehicle, 2 mM AMP-PNP; baseline: input library; direction: higher = stronger binding
Target: Eukaryotic initiation factor 4A-I (EIF4A1, Homo sapiens, UniProt P60842, residues 1-406, full length assumed)
Sequence of UniProt P60842 (whole entry, looked up): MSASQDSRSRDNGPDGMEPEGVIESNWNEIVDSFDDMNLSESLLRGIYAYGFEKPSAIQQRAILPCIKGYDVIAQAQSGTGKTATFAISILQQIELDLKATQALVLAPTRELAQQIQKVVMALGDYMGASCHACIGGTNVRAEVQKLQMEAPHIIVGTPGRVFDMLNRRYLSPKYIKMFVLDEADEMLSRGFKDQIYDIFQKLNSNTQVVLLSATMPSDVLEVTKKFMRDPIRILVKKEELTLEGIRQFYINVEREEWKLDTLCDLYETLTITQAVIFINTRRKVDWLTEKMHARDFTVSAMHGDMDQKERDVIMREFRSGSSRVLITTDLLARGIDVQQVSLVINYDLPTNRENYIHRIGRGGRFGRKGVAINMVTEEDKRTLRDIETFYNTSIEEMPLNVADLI
Sequence	4-mer enrichment
UGUA	0.583 fold
GGCG	1.24 fold
CUCA	1.45 fold
AUAA	1.36 fold
AUCU	0.788 fold
CUAU	0.864 fold
GAAA	1.41 fold
CAUC	1.44 fold
AGGA	1.38 fold
UCAG	1.43 fold
GCUU	1.09 fold
GUAG	0.649 fold
GGCC	1.51 fold
ACAA	1.05 fold
CGAU	0.985 fold
CGUC	1.37 fold

Block 3 — method: universal PBM; form: double-stranded DNA, one strand shown; medium: in vitro; concentration: 600 nM; direction: higher = stronger binding
Target: Sal-like protein 4, full length isoform A (SALL4, Homo sapiens, UniProt Q9UJQ4, residues 1-1053)
Sequence of UniProt Q9UJQ4 (whole entry, looked up): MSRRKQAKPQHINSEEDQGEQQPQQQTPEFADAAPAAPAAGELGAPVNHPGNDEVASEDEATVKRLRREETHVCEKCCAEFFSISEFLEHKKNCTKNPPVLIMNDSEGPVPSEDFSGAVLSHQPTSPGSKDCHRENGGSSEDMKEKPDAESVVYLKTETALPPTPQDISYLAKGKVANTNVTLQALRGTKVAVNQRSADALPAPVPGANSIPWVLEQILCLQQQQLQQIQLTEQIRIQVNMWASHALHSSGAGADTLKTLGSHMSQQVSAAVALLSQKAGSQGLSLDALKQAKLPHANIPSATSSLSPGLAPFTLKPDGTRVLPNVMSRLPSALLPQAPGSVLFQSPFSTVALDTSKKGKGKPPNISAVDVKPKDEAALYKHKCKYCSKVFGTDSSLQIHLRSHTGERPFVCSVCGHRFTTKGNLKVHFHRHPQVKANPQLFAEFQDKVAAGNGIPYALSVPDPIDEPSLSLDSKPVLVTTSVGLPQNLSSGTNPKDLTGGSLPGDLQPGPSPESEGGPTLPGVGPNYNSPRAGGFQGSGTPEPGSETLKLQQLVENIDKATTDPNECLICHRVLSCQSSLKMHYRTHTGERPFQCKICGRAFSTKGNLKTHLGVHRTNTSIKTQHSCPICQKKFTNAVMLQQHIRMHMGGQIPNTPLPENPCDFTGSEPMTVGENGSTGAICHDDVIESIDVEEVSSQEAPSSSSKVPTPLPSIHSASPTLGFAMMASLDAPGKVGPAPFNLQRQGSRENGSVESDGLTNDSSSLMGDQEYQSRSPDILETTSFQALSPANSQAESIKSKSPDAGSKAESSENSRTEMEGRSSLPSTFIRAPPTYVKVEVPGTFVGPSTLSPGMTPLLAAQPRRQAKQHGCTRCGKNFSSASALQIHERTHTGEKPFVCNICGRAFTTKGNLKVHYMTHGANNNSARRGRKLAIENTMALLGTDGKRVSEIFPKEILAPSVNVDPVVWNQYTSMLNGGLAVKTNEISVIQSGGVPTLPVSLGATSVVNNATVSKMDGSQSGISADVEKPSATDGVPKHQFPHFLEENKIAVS
Notes: 8-mer, flanks averaged, mean of replicates
Sequence	E-score
AGTTGAAT	0.167
CACTGATG	-0.143
GTGGGACA	-0.172
AACTCGGT	-0.029
AAACTTTC	0.2
GTGCACAC	-0.0706
CTGCCCGA	-0.266
CCTTAACC	-0.1
CGTTAAGC	-0.115
GACGGCGC	-0.298
CGTCGAAG	-0.0991
AGGGCCGC	-0.43
CCTCGATC	-0.146
GCCACGAA	-0.115
CCTGTGCA	-0.0885
GTTGGAGA	0.0495
ACTAGAAA	0.175
AACAGCCG	-0.215
GGGGAAAC	-0.257
ATAAGCGA	0.235
ATCAACAC	0.198
CACATACG	0.0537
ATCCCCTC	-0.0718
GCCGATCA	0.0133
CTAATGAG	0.0629

Block 4 — method: EMSA with sequencing; form: double-stranded DNA, one strand shown; medium: in vitro; concentration: 10 and 20 nM; baseline: negative control set to 0; direction: higher = stronger binding
Target: Hepatocyte nuclear factor 3-alpha (Foxa1, Mus musculus, UniProt P35582, residues 1-468, full length assumed)
Notes: whole designed probe, mean of two concentrations, ends assumed
Construct (chain): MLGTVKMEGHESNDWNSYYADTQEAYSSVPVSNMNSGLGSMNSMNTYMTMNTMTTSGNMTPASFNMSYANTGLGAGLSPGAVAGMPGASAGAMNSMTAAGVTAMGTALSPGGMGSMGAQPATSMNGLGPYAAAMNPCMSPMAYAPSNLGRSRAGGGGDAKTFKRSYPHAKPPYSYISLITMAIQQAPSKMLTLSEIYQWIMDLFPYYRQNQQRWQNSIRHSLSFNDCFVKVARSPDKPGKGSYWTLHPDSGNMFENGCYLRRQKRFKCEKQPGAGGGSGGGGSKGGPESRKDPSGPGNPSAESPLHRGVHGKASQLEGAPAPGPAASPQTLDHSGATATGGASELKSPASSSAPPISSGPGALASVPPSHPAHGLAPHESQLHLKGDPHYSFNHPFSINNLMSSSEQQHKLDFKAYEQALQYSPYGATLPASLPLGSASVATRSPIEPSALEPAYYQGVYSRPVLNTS
Sequence	normalised bound fraction
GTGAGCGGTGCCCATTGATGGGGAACTTTTTTCTGTACAGGGAAAAATAGTGAATATTTCAAAATTGTGAAACAAAGAGTCTCTGTGGCGTTGCATAACAACTACTCATTAGACAATATGCAAACAAATGAGTGTGTCTGTGTTCCAATAAAACTGTATTTACAAAAGCAGAAGGCCACCCATGTGCCAATGTCCAAAGTTTCTCAACCAACCCCTGGTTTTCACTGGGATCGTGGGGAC	0.377 ratio
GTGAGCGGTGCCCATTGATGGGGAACCAAGTTTGTGGTCCAGGAGCAACAGGTTATGCCATACAGCCTAGGTGTGTAGTAGGCTCCATGACTCATATGTTTGTGTTGTACACTCTACAATGTTTGCACAATGATGAAATCCCATGTCACATTTCTCAGAACATACCCCTGTTGTTAAGCGATACATGACTGTACTTTTTTTAAAAAGTCCAAGGATATATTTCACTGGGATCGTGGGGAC	0.444 ratio
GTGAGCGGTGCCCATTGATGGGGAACGCCACAGTTCAAGTTCAAAGAGAAACACTCTAGCAACTTCTGAAAGCAGGAACTGTATGCAACTGAATGACCTCATCCGGCACAGAAGCCAGAGCAAACAATGAAAAACAAACCGTACCAACTCTGGTACCAGTTACTGACCTTCCAGACCAAGAGAACGTGCTGGCAGCACTGGTGAAATGTACTTGTCTGTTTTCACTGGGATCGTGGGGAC	0.262 ratio
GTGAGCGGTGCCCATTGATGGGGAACCAGTTTTGCAAATGAGTAGTAATTACATTTATCTATAACTTTTACTATGTTTTTCTTGAATGATATTCTGCATCCAAATTGTATTCTTTCTTCCTGTTTACTTTGTTAGGCCAATCTTATTGTTCTCAGATTCATGAGGGTGCACTGCAATTTTGAGTTCAGAGAGAAGTTGAGAGTAGAAAAGCCTAAAATTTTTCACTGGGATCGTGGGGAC	0.291 ratio
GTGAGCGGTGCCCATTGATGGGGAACGCCTAGCACTGCTGTGTGTGCTTGCTATAGGTGTATCGTCTGATGCACATGAAAGCGGACCTAGTTAACACCCTTTGGGACAGGAGAGTTTATGTTTACTTTGCCTTGAATGGTTCTCATTCTAACCAGCGAACTCTAACTTTTTGTATATAATGATACTCTTTTAAAAAATCCTGTAACATGGAGGGTAAAGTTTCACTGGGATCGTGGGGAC	0.42 ratio
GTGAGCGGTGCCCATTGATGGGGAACGGAGCAATGCCGGCTGGTGGCCTGGCCGCTCCGCCCCTTCCCTACCCCTCGCGGAGGGCCCGCCCCCTGCCCCGCGCCGGCTAGCGGAGGAGAGTAAATACAACAGGAGCGCAAAAACGCGGAACCGCCGAGCCCCGTGCACTGTGTCGCTGCCGCGGCCCCCACCGCCACCGTCTCGGAGAAAGAACCGTTTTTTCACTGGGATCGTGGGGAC	0.231 ratio
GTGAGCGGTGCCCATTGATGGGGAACTGCCATGGGCCTTCATTTCCAGGCTTCCAGGCTCACCAGCTCAGGAAGAGGATTTTGCTAAGCAGTGGATATATACACAAAGGCAGGGCCAATGCAATTTAGAAATTCCTGGTCCACAAATAAACATTTCTTAAGCAACCCACACAATGAAATGGATGATAGCGTTTTCTACCCGAACTTTTCTCTAATTACATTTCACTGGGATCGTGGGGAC	0.134 ratio
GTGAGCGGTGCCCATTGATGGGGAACTTTTGTCCAATTTATTAACTCCTGGAAAACGGCACTCAGTCTATTGCAAGAAAAGCCTTTGCTGATGAGCATGACCAGAATTTGCATACTTTCTTGTTTACATAACACTTATTCTTTACTAGTGGGCATATTTGCTTATAAGCTGTTAAGCAGGGTATTGGAAGGCCTCTATGGAACTTCACTTATCAGTGATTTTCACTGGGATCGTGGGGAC	0.537 ratio

Block 5 — method: protein-binding microarray; form: double-stranded DNA, one strand shown; medium: in vitro; concentration: 940 nM top; notes: 60-bp whole probe; together with: salmon DNA 0.4 mg/ml; baseline: random background probes; direction: higher = stronger binding; shared flanks, not repeated: GCCTAGCAC … GTCTTGATTCGCTTGACGCTGCTG
Target: Interferon regulatory factor 5, full length, phosphomimetic (IRF5, Homo sapiens, UniProt Q13568-2, residues 1-514, S451D/S453D/S456D/S462D)
Sequence	fitted relative affinity
TCACTCCTCTTTTTTTGACTGTGCTAG	1.32 z-score
GACGGACTGGACCTTCGGGACGTGCTA	-0.678 z-score
GGATGTGTCTTAAATAGGGGAGTGCTA	-0.0976 z-score
TTAGAACTGAGTTTCGTTTAGTGCTAG	5.59 z-score
TCACATTTCAATTAGAAACTGTGCTAG	0.107 z-score
GAGTTTCTATTTTCTGAATGGTGCTAG	6.44 z-score
GCCGGACTGGACTTTCGGGACGTGCTA	0.131 z-score
CTGGTGCTCATCTGTCATGTTGTGCTA	0.241 z-score
AGGGTGTTCTTTTCTGTTGTCGTGCTA	1.09 z-score
GACGTTCTCGGTCTCGGGACGTGCTAG	4.28 z-score
GACGAACTGAGTTTCGACACGTGCTAG	4.17 z-score
GACGGTATCGGACTGGGGATGTGCTAG	2.37 z-score
TTAGGACTGCGGACTGGGTTAGTGCTA	-0.277 z-score
TCATATTAGAGTCTCAAACTGTGCTAG	0.124 z-score
TTAGATCTCACTCTCGATTAGTGCTAG	3.72 z-score
GACGGTATCGGGTAACGGGACGTGCTA	5.88 z-score
TCAATTGTGGCTTTTTAACTGTGCTAG	0.179 z-score
TCACTTCCCAATTCTCTTACTGTGCTA	1.82 z-score
TTCTAATTTACTTTGGTTGGGTGCTAG	0.718 z-score
TCATGTTTGGTGTCTTTTACTGTGCTA	1.22 z-score
CGTATCTTCATTGTCATGTAGTGCTAG	0.981 z-score
GACGGTCTCCTTATCATGACGTGCTAG	0.635 z-score
TCAAGTTTTCCTTCATGACTGTGCTAG	0.92 z-score
GACGGTATCGGGACGGGGGACGTGCTA	6.32 z-score
GCTCCTCTTTTTTTGGTAATGTGCTAG	1.13 z-score

Block 6 — method: protein binding microarray; form: double-stranded DNA, one strand shown; medium: in vitro; concentration: not given; baseline: not given; direction: higher = stronger binding
Target: Histone acetyltransferase KAT6A, winged helix 2, GST fusion (KAT6A, Homo sapiens, UniProt Q92794, residues 85-181)
Notes: 8-mer, flanks averaged, mean of 2 arrays, mostly near background
Construct (chain): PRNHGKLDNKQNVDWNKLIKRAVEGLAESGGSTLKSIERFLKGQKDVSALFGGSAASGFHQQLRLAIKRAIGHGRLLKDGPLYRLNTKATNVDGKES
Sequence	E-score
ATCCCAAT	-0.0486
AATACGCC	-0.0303
CGGACTAG	-0.215
ATGGATAA	-0.133
CATGGAAA	-0.0463
GTGTAGCA	-0.053
GACTGGGA	-0.0735
CTCTGGCC	0.107
ATTATCCG	0.018
ATTCCTAG	-0.00884
CTCGACGA	-0.0462
ATGCTTGC	0.0103
GCACAAAC	0.0946
AAGGGATA	0.00773
GGGCGTAC	-0.001
GGCTGCCC	0.219
AGAGTTAA	-0.161
CGACATCG	-0.0809

For quick reference, copied from above (block 2):
Sequence	4-mer enrichment
CGAU	0.985 fold
UCAG	1.43 fold
AUCU	0.788 fold
CUCA	1.45 fold
GGCC	1.51 fold
UGUA	0.583 fold
CAUC	1.44 fold
AGGA	1.38 fold
GUAG	0.649 fold
GAAA	1.41 fold
CGUC	1.37 fold
GGCG	1.24 fold
GCUU	1.09 fold
CUAU	0.864 fold
ACAA	1.05 fold
AUAA	1.36 fold
